Results gathered from unrelated publications.
Compare with care: the assays were run in different laboratories. Values joined by “and” are separate records of one study, mostly repeats; a detail may differ.
tmk: Thymidylate kinase (tmk, Mycobacterium tuberculosis, UniProt P9WKE1)
OPRD1: Delta-type opioid receptor (OPRD1, Homo sapiens, UniProt P41143)
UniProt P41143, sequence (whole entry, looked up): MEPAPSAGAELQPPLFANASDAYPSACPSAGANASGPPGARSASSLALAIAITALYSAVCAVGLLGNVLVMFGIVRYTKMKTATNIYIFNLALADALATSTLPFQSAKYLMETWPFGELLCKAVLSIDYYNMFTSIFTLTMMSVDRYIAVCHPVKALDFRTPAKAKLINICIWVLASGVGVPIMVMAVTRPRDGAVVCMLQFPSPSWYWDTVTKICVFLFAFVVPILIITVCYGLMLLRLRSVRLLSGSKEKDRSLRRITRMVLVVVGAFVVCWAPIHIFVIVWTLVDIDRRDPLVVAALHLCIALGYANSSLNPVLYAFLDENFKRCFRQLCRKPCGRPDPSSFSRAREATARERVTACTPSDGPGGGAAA
HTR2C: 5-hydroxytryptamine receptor 2C (HTR2C, Homo sapiens, UniProt P28335)
UniProt P28335, sequence (whole entry, looked up): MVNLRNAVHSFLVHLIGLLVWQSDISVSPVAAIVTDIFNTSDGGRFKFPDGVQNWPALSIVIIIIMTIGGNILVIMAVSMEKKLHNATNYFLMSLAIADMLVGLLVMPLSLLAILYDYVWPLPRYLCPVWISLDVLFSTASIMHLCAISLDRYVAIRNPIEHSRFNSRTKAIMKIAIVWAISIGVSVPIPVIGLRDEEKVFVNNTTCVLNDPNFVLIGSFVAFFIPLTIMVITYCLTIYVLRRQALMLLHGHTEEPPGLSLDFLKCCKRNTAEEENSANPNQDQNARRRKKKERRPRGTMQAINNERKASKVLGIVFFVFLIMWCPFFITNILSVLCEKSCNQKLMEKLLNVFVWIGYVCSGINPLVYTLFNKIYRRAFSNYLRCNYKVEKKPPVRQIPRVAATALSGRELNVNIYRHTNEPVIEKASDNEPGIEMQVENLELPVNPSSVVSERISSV
CES2: Cocaine esterase (CES2, Homo sapiens, UniProt O00748)
UniProt O00748, sequence (whole entry, looked up): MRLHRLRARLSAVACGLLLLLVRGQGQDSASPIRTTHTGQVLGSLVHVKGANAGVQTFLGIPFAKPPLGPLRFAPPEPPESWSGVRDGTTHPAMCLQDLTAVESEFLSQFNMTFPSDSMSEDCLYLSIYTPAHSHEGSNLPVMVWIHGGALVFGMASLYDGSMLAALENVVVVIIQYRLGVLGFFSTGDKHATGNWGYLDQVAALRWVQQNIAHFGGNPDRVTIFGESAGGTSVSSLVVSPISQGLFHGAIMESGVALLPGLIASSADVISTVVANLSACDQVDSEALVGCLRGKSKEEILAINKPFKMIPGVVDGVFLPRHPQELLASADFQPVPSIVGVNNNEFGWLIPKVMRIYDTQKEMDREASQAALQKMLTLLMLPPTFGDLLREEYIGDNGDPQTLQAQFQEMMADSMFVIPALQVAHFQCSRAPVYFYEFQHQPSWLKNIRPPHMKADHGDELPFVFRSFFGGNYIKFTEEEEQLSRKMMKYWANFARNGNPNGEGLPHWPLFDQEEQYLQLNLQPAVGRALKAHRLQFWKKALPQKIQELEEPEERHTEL
UniProt P21554, sequence (whole entry, looked up): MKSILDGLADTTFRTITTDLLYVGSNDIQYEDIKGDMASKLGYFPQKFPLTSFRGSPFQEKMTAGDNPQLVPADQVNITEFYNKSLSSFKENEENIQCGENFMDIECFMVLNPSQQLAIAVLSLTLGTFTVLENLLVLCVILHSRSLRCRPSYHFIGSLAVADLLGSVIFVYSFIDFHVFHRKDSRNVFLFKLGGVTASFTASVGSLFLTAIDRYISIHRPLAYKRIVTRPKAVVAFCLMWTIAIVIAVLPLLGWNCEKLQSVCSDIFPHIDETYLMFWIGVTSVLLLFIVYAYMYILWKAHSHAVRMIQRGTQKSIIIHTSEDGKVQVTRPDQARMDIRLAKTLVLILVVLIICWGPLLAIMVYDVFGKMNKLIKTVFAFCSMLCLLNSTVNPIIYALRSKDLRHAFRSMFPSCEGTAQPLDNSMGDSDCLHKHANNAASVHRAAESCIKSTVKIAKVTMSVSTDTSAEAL
UniProt O75582, sequence (whole entry, looked up): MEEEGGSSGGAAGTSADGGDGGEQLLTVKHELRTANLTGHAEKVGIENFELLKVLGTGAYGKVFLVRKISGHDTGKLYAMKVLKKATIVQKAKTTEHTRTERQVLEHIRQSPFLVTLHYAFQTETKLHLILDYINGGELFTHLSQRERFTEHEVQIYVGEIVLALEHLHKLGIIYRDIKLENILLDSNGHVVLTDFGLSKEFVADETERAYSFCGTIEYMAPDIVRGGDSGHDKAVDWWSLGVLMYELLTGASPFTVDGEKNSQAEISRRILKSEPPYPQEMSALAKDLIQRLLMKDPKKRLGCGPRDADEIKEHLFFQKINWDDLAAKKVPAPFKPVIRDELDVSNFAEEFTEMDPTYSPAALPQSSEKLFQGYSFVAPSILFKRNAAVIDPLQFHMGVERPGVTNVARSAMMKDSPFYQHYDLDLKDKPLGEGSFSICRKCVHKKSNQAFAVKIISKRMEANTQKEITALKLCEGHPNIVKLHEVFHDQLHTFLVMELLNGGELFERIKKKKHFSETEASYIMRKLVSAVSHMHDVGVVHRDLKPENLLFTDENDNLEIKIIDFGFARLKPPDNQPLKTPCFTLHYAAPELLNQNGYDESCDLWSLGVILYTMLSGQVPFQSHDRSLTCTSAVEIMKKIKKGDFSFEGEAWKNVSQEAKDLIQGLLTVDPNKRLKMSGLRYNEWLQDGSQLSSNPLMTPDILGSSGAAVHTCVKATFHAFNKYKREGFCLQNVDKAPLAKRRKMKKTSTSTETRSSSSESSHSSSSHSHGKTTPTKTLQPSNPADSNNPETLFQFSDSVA
UniProt O15245, sequence (whole entry, unmodified, looked up): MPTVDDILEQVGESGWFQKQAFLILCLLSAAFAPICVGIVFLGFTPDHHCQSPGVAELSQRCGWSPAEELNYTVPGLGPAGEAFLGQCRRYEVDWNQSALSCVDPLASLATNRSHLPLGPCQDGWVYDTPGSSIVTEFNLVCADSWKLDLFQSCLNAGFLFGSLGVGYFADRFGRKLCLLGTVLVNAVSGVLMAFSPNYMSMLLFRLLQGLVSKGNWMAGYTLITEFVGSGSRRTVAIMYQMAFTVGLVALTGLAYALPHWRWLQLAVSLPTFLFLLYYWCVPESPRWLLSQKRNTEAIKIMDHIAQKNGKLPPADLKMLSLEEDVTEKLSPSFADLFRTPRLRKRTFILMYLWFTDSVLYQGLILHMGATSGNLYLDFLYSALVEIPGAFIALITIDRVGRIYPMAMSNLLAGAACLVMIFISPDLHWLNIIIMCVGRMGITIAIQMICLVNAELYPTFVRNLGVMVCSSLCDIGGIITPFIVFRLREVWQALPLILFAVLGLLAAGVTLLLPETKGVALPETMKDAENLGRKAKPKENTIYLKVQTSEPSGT
UniProt P08581, sequence (whole entry, unmodified, looked up): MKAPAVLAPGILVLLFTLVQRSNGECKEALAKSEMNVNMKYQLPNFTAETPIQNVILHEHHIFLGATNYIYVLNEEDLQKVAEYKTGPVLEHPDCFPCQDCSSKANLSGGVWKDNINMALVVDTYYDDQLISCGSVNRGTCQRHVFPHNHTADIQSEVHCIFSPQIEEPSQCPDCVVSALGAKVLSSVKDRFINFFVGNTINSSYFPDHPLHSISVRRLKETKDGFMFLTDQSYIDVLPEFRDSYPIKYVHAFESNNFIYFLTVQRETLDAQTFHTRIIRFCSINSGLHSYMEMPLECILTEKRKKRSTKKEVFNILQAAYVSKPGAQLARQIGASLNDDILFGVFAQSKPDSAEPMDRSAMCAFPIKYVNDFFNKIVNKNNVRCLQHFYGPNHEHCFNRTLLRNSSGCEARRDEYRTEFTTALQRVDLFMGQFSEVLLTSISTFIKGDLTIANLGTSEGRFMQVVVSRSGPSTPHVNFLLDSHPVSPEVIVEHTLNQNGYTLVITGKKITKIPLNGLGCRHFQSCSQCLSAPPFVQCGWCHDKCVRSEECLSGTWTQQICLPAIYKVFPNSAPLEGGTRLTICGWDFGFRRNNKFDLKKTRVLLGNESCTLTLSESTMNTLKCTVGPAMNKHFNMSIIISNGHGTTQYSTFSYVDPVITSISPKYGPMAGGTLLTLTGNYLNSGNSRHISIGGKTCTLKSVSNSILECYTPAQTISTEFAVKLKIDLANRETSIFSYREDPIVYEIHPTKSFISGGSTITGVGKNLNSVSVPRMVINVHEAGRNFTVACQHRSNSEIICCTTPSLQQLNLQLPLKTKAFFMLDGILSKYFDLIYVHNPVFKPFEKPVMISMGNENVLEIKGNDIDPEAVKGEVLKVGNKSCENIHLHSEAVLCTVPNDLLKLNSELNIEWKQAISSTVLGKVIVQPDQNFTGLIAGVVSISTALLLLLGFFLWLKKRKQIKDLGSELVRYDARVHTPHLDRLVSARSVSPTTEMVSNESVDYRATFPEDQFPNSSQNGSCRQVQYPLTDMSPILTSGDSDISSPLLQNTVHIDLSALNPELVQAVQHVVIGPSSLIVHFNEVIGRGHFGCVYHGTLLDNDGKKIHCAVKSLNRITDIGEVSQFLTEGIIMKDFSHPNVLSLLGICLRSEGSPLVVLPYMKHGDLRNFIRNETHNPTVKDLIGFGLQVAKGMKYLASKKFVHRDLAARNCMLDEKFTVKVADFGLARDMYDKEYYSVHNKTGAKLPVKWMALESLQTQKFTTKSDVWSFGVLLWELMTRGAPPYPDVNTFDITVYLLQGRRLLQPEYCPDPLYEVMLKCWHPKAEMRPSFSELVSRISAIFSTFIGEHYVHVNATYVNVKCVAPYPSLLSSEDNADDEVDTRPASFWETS

SMILES | target | test | conditions | measurement | result
CC1=C(C(N)=O)C(c2ccc([N+](=O)[O-])o2)NC(=O)N1 (stereo not shown) | tmk | enzyme activity, inhibitor, absorbance | – | IC50 | 0.0841 µM
COc1cc(CCN)c(OC)cc1Br | Htr2a (Mus musculus, UniProt P35363) | G protein activation, agonist, BRET | – | EC50 | 0.00347 µM
CC1=C(C(N)=O)C(c2ccc([N+](=O)[O-])o2)NC(=S)N1 (stereo not shown) | tmk | enzyme activity, inhibitor, absorbance | – | IC50 | 0.193 µM
O=C(N[C@H]1CC[C@@]2(O)[C@H]3Cc4ccc(O)c5c4[C@@]2(CCN3CC2CC2)[C@H]1O5)c1ccc(C(F)F)s1 | OPRD1 | ligand displacement, radioligand | cell membranes | Ki | 0.0292 µM
CC(N)Cc1c[nH]c2ccc(O)cc12 (stereo not shown) | HTR2A (Homo sapiens, UniProt P28223) | calcium signal, agonist | – | EC50 | 0.0362 µM
COc1ccc(C(=O)N[C@H]2CC[C@@]3(O)[C@H]4Cc5ccc(O)c6c5[C@@]3(CCN4CC3CC3)[C@H]2O6)s1 | OPRD1 | ligand displacement, radioligand | cell membranes | Ki | 0.00606 µM
O[C@H]1[C@H](O)[C@@H](O)CN2CC[C@H](O)[C@H]12 | Toxin B (tcdB, Clostridioides difficile, UniProt P18177) | enzyme activity, inhibitor | – | Ki | 7110 µM
CN(C[C@@H]1COCCO1)S(=O)(=O)Nc1ccc2ccc3ncc(-c4cnn(C)c4)cc3c(=O)c2c1 | MET (Homo sapiens, UniProt P08581, C1091S/C1146S/K1232C) | binding | – | Kd | 0.117 µM
NCCc1c2c(c(Br)c3c1OCC3)OCC2 | HTR2C | G protein activation, agonist, BRET | – | EC50 | 0.00036 to 0.0029 µM
Cc1ccc(NC(=O)c2cc(S(=O)(=O)NC(C)(C)C)ccc2C)nc1 | PFF0160c (Plasmodium falciparum, UniProt Q08210) | enzyme activity, inhibitor, absorbance | – | IC50 | 1.33 µM
NC(=O)c1ccc(C(=O)N[C@H]2CC[C@@]3(O)[C@H]4Cc5ccc(O)c6c5[C@@]3(CCN4CC3CC3)[C@H]2O6)s1 | OPRD1 | ligand displacement, radioligand | cell membranes | Ki | 0.0123 µM
COc1cc(CCNCc2ccccc2)c(OC)cc1C#N | HTR2C | calcium signal, agonist | – | EC50 | 0.082 µM
CC1(C)C(C(=O)c2cn(CCCCCF)c3ccccc23)C1(C)C | CNR1 (Homo sapiens, UniProt P21554) | ligand displacement, radioligand | cell membranes | Ki | < 0.03 µM and 0.024 µM
Nc1ncc(-c2nc(N3CCOCC3)nc(N3CCOCC3)n2)c(C(F)F)n1 | Ribosomal protein S6 kinase alpha-5, C-terminal kinase domain (RPS6KA5, Homo sapiens, UniProt O75582) | binding, competition with immobilised ligand | 10 µM | remaining binding | 88%
O=C(N[C@H]1CC[C@@]2(O)[C@H]3Cc4ccc(O)c5c4[C@@]2(CCN3CC2CC2)[C@H]1O5)c1ccc(C(F)(F)F)s1 | OPRD1 | ligand displacement, radioligand | cell membranes | Ki | 0.0663 µM
O=C(NC1CC1)c1ccc(N2CCOc3ccc(Cl)cc32)s1 | PFF0160c (Plasmodium falciparum, UniProt Q08210, E182D) | enzyme activity, inhibitor, absorbance | – | IC50 | > 10 µM
COc1cc(CCNC(C)c2ccccc2O)c(OC)cc1C#N (stereo not shown) | ADRA2C (Homo sapiens, UniProt P18825) | cell-free assay, radioligand | – | Ki | 0.531 µM
Clc1cc(Cl)cc(N2CCNCC2)c1 | CHRM2 (Homo sapiens, UniProt P08172) | ligand displacement, radioligand | cell membranes | Ki | 3.98 µM
CC(=O)Nc1ccc(C(=O)N[C@H]2CC[C@@]3(O)[C@H]4Cc5ccc(O)c6c5[C@@]3(CCN4CC3CC3)[C@H]2O6)s1 | OPRD1 | ligand displacement, radioligand | cell membranes | Ki | 0.00649 µM
CNC(C)Cc1ccc2c(c1)OCO2 (stereo not shown) | SLC47A1 (Homo sapiens, UniProt Q96FL8) | transporter uptake, inhibitor | – | Ki | 6.64 µM
CCC(NCCc1cc(OC)c(C#N)cc1OC)c1ccccc1O (stereo not shown) | HTR2C | calcium signal, agonist | – | EC50 | 0.77 µM
C[C@]12CC[C@H]3[C@@H](CCC4=CC(=O)CC[C@@]43C)[C@@H]1CC[C@@H]2O | CES2 | enzyme activity, inhibitor, fluorescence | with preincubation | IC50 | > 100 µM
[2H]c1c([2H])c([C@]2([2H])CCCN2C(=O)C(C)(C)Oc2ccc3cn[nH]c3c2)c([2H])c([2H])c1C([2H])([2H])[2H] | WNK4 (Homo sapiens, UniProt Q96J92) | binding, competition with immobilised ligand | 1 µM | remaining binding | 100%
COc1cc(CCNC(C)c2ccccc2)c(OC)cc1C#N (stereo not shown) | HTR2C | calcium signal, agonist | – | EC50 | 3.3 µM
C[n+]1ccc(-c2ccccc2)cc1 | SLC22A1 (Homo sapiens, UniProt O15245, G465R) | cell-free assay, radioligand | – | Kd | 0.38 µM
O=c1[nH]c2ccccc2n1CCCN1CCC(n2c(=O)[nH]c3cc(Cl)ccc32)CC1 | CES2 | enzyme activity, inhibitor, fluorescence | with preincubation | IC50 | > 100 µM
COc1cc(CCNC(C)c2ccccc2O)c(OC)cc1Br (stereo not shown) | HTR2C | G protein activation, agonist, BRET | – | EC50 | 0.0056 µM
NCCc1ccc(Oc2ccc(O)cc2)c(I)c1 | Slc6a4 (Mus musculus, UniProt Q60857) | transporter uptake, inhibitor, radiometric | – | IC50 | 4.5 µM

Repeated from above:
SMILES | target | test | conditions | measurement | result
NCCc1ccc(Oc2ccc(O)cc2)c(I)c1 | Slc6a4 (Mus musculus, UniProt Q60857) | transporter uptake, inhibitor, radiometric | – | IC50 | 4.5 µM
